Measurements of several laboratories.
Lines come from different studies, so protocols differ. Numbers after ± are the reported error.

| Compound | cell line | test | setting | how to read | viability |
| --- | --- | --- | --- | --- | --- |
| C[C@H](C(=O)NCC(=O)N[C@@H](Cc1ccc(O)cc1)C(=O)N[C@H]1CCCCNC(=O)C[C@@H](C(=O)N[C@@H](Cc2cccc3ccccc23)C(=O)N[C@@H](Cc2cccc3ccccc23)C(=O)N[C@H](CCC(=O)O)C(=O)O)NC(=O)[C@H](Cc2ccc(O)cc2)NC(=O)[C@H]([C@@H](C)O)NC(=O)[C@@H]2CCCN2C(=O)[C@H](CC(N)=O)NC1=O)N(C)C(=O)[C@H](CCCNC(=N)N)NC(=O)[C@H](CCCNC(=N)N)NC(=O)[C@H](CCCNC(=N)N)NC(=O)[C@H](CCC(N)=O)NC(=O)[C@H](CCCNC(=N)N)NC(=O)[C@H](CCCNC(=N)N)NC(=O)[C@H](CCCCN)NC(=O)[C@H](CCCCN)NC(=O)[C@H](CCCNC(=N)N)NC(=O)CNC(=O)[C@@H](N)Cc1ccc(O)cc1 | mouse primary neurons | – | 20 µM | – | 75% |
| CC1(C)C=Cc2c(cc3oc(-c4ccccc4)cc(=O)c3c2O)O1 | differentiated SH-SY5Y | MTT | 10 µM | reference: control | 100 ± 6.3% |
| C[C@@H]1NC(=O)[C@H](CCC(=O)O)NC(=O)[C@@H]2CSSC[C@H](NC(=O)[C@H](CCCCN)NC(=O)CNC1=O)C(=O)N[C@@H](CO)C(=O)N[C@H]1CSSC[C@H](NC(=O)[C@H](CC(=O)O)NC(=O)[C@@H]3CSSC[C@H](NC(=O)[C@H](Cc4ccc(O)cc4)NC1=O)C(=O)N[C@@H](CC(=O)O)C(=O)N[C@@H](C)C(=O)NCC(=O)N[C@@H](CC(=O)O)C(=O)N3)C(=O)N[C@@H](CCCCN)C(=O)N2 | OVCAR-3 and HFLS-RA | CellTiter-Glo | up to 100 µM | – | not toxic |
| CC1(C)C(/C=C/C=C/C=C/C=C2/N(CCC(=O)N[C@@H]3CSSC[C@@H](C(=O)N[C@@H](CCCCN)C(=O)O)NC(=O)[C@@H]4CCCN4C(=O)[C@H](CO)NC(=O)[C@H](CC(=O)O)NC(=O)[C@H](CCCNC(=N)N)NC(=O)CNC3=O)c3ccc4ccccc4c3C2(C)C)=[N+](CCC(=O)O)c2ccc3ccccc3c21 | 4T1 or fibroblasts | – | concentration not given, 48 or 72 h | – | no effect |
| CC1(C)C=Cc2c(cc(O)c3c(=O)cc(-c4ccccc4)oc23)O1 | differentiated SH-SY5Y | MTT | 100 µM, 24 h, retinoic acid differentiated | reference: control | 83.4 ± 1.1% |
| Nc1nnc(NCc2c(Cl)cccc2Oc2ccccc2)[nH]1 | K562 | MTS | concentration not given, 72 h | – | not toxic |
| CC(C)C[C@H](NC(=O)[C@H](CCN)NC(=O)[C@H](CCN)NC(=O)[C@H](CC(C)C)NC(=O)[C@H](Cc1c[nH]c2ccccc12)NC(=O)[C@H](CCN)NC(=O)[C@@H](N)CC(C)C)C(N)=O | L132 | MTT | 100 µM, 4 h | – | ~90% |
| COc1cc2c(=O)cc(-c3ccccc3)oc2c2c1OC(C)(C)C=C2 | differentiated SH-SY5Y | MTT | 100 µM | reference: control | 75.3 ± 2.3% |
| CC[C@H](C)[C@H](NC(=O)[C@H](CCCCN)NC(=O)[C@H](CCC(=O)O)NC(=O)[C@H](CCCCN)NC(=O)[C@H](CO)NC(=O)[C@H](CCCCN)NC(=O)[C@H](CCCNC(=N)N)NC(=O)[C@H](Cc1ccccc1)NC(=O)[C@H](Cc1ccccc1)NC(=O)[C@H](CC(=O)O)NC(=O)CNC(=O)[C@H](CC(C)C)NC(=O)[C@@H](N)CC(C)C)C(=O)NCC(=O)N[C@@H](CCCCN)C(=O)N[C@@H](CCC(=O)O)C(=O)N[C@@H](Cc1ccccc1)C(=O)N[C@@H](CCCCN)C(=O)N[C@@H](CCCNC(=N)N)C(=O)N[C@H](C(=O)N[C@H](C(=O)N[C@@H](CCC(N)=O)C(=O)N[C@@H](CCCNC(=N)N)C(=O)N[C@H](C(=O)N[C@@H](CCCCN)C(=O)N[C@@H](CC(=O)O)C(=O)N[C@@H](Cc1ccccc1)C(=O)N[C@@H](CC(C)C)C(=O)N[C@@H](CCCNC(=N)N)C(=O)N[C@@H](CC(N)=O)C(=O)N[C@@H](CC(C)C)C(=O)N[C@H](C(=O)N1CCC[C@H]1C(=O)N[C@@H](CCCNC(=N)N)C(=O)N[C@H](C(=O)N[C@@H](CCC(=O)O)C(=O)N[C@@H](CO)C(=O)O)[C@@H](C)O)C(C)C)[C@@H](C)CC)C(C)C)[C@@H](C)CC | differentiated SH-SY5Y | microglia-mediated neurotoxicity, MTT, microglial supernatant transfer | 30 µM, 2 days | reference: fresh medium | 70% |

Repeated from above:
| Compound | cell line | test | setting | how to read | viability |
| --- | --- | --- | --- | --- | --- |
| CC[C@H](C)[C@H](NC(=O)[C@H](CCCCN)NC(=O)[C@H](CCC(=O)O)NC(=O)[C@H](CCCCN)NC(=O)[C@H](CO)NC(=O)[C@H](CCCCN)NC(=O)[C@H](CCCNC(=N)N)NC(=O)[C@H](Cc1ccccc1)NC(=O)[C@H](Cc1ccccc1)NC(=O)[C@H](CC(=O)O)NC(=O)CNC(=O)[C@H](CC(C)C)NC(=O)[C@@H](N)CC(C)C)C(=O)NCC(=O)N[C@@H](CCCCN)C(=O)N[C@@H](CCC(=O)O)C(=O)N[C@@H](Cc1ccccc1)C(=O)N[C@@H](CCCCN)C(=O)N[C@@H](CCCNC(=N)N)C(=O)N[C@H](C(=O)N[C@H](C(=O)N[C@@H](CCC(N)=O)C(=O)N[C@@H](CCCNC(=N)N)C(=O)N[C@H](C(=O)N[C@@H](CCCCN)C(=O)N[C@@H](CC(=O)O)C(=O)N[C@@H](Cc1ccccc1)C(=O)N[C@@H](CC(C)C)C(=O)N[C@@H](CCCNC(=N)N)C(=O)N[C@@H](CC(N)=O)C(=O)N[C@@H](CC(C)C)C(=O)N[C@H](C(=O)N1CCC[C@H]1C(=O)N[C@@H](CCCNC(=N)N)C(=O)N[C@H](C(=O)N[C@@H](CCC(=O)O)C(=O)N[C@@H](CO)C(=O)O)[C@@H](C)O)C(C)C)[C@@H](C)CC)C(C)C)[C@@H](C)CC | differentiated SH-SY5Y | microglia-mediated neurotoxicity, MTT, microglial supernatant transfer | 30 µM, 2 days | reference: fresh medium | 70% |
